Published values pooled from the literature.
Lines come from different studies, so protocols differ. ± marks the error that the study gave.

SMILES | assay | test system | conditions | how to read | quantity | value
CCCC[C@H](NC(=O)[C@@H](NC(=O)[C@H](CC(=O)O)NC(=O)[C@H](CCC(N)=O)NC(=O)[C@H](CC(C)C)NC(=O)[C@H](CC(C)C)NC(=O)[C@H](CCCN)NC(=O)[C@H](CCCNC(=N)N)NC(=O)[C@H](C)NC(=O)[C@H](CO)NC(=O)[C@H](CC(C)C)NC(=O)[C@H](CCC(N)=O)NC(=O)[C@H](CC)NC(=O)[C@H](CC(C)C)NC(=O)[C@@H](NC(=O)[C@H](CCCN)NC(=O)[C@H](CCCNC(=N)N)NC(=O)[C@H](Cc1ccc(O)cc1)NC(=O)[C@H](CO)NC(=O)[C@H](CC(N)=O)NC(=O)[C@@H](NC(=O)[C@H](Cc1c(F)c(F)c(F)c(F)c1F)NC(=O)[C@@H](NC(=O)[C@H](C)NC(=O)[C@H](CC(=O)O)NC(=O)[C@@H](C)NC(=O)CCc1ccc(O)cc1)[C@@H](C)CC)[C@@H](C)O)C(C)C)[C@@H](C)CC)C(=O)N[C@@H](CO)C(=O)N[C@@H](CCCNC(=N)N)C(=O)NCCCC(N)=O | GH release, ELISA | male rat, anaesthetised, serum | intravenous, 1 µg/kg, 15 min |  | serum GH level | 575 ± 20.9 ng/mL
COc1ccc(C2CC(c3ccc(C)cc3)=Nc3ccccc3S2)cc1OC (stereo not shown) |  | Wistar rat, streptozotocin-induced diabetes, serum | 10 mg/kg, 28 days |  | serum ALT | 23.7 ± 2.3 IU/L
O=c1c(OCc2ccccc2)c(-c2cccc([N+](=O)[O-])c2)oc2ccccc12 |  | diabetic rat | 5 mg/kg, 28 days, p-nitrophenyl β-glucoside induced |  | serum total cholesterol | 152 ± 4.8 mg/dL
CCCC[C@H](NC(=O)[C@@H](NC(=O)[C@H](CC(=O)O)NC(=O)[C@H](CCC(N)=O)NC(=O)[C@H](CC(C)C)NC(=O)[C@H](CC(C)C)NC(=O)[C@H](CCCN)NC(=O)[C@H](CCCNC(=N)N)NC(=O)[C@H](C)NC(=O)[C@H](CO)NC(=O)[C@H](CC(C)C)NC(=O)[C@H](CCC(N)=O)NC(=O)[C@H](CC)NC(=O)[C@H](CC(C)C)NC(=O)[C@@H](NC(=O)[C@H](CCCN)NC(=O)[C@H](CCCNC(=N)N)NC(=O)[C@H](Cc1ccc(O)cc1)NC(=O)[C@H](CO)NC(=O)[C@H](CCC(N)=O)NC(=O)[C@@H](NC(=O)[C@H](Cc1ccccc1)NC(=O)[C@@H](NC(=O)[C@H](C)NC(=O)[C@H](CC(=O)O)NC(=O)[C@H](C)NC(=O)[C@H](Cc1ccc(O)cc1)NC)[C@@H](C)CC)[C@@H](C)O)C(C)C)[C@@H](C)CC)C(=O)N[C@@H](CC(=O)O)C(=O)N[C@@H](CCCNC(=N)N)C(=O)NC | GH release, ELISA | male Sprague-Dawley rat, anaesthetised, serum | subcutaneous, 3 µg/kg, 30 min |  | serum GH level | 282 ± 17.8 ng/mL
COc1ccc(C2CC(c3ccc(C)cc3)=Nc3ccccc3S2)cc1 (stereo not shown) |  | Wistar rat, streptozotocin-induced diabetes, serum | 20 mg/kg, 28 days |  | serum ALT | 21.1 ± 2.71 IU/L
Cc1ccc(-c2oc3ccccc3c(=O)c2OCc2ccccc2)cc1 |  | diabetic rat | 7.5 mg/kg, 28 days, p-nitrophenyl β-glucoside induced |  | serum LDL cholesterol | 117 ± 3.29 mg/dL
CC(CCC(=O)NCc1ccc(C(=O)NO)cc1)C1CCC2C3C(O)CC4CC(O)CCC4(C)C3CCC12C (stereo not shown) |  | PCK rats | oral gavage, 15 mg/kg/day, 5 months | baseline: untreated | serum urea | decreased
CCCC[C@H](NC(=O)[C@@H](NC(=O)[C@H](CC(=O)O)NC(=O)[C@H](CCC(N)=O)NC(=O)[C@H](CC(C)C)NC(=O)[C@H](CC(C)C)NC(=O)[C@H](CCCN)NC(=O)[C@H](CCCNC(=N)N)NC(=O)[C@H](C)NC(=O)[C@H](CO)NC(=O)[C@H](CC(C)C)NC(=O)[C@H](CCC(N)=O)NC(=O)[C@H](CC)NC(=O)[C@H](CC(C)C)NC(=O)[C@@H](NC(=O)[C@H](CCCN)NC(=O)[C@H](CCCNC(=N)N)NC(=O)[C@H](Cc1ccc(O)cc1)NC(=O)[C@H](CO)NC(=O)[C@H](CC(N)=O)NC(=O)[C@@H](NC(=O)[C@H](Cc1ccccc1)NC(=O)[C@@H](NC(=O)[C@H](C)NC(=O)[C@H](CC(=O)O)NC(=O)[C@@H](CC)NC(=O)CCc1ccc(O)cc1)[C@@H](C)CC)[C@@H](C)O)C(C)C)[C@@H](C)CC)C(=O)N[C@@H](CO)C(=O)N[C@@H](CCCNC(=N)N)C(=O)NCCCC(N)=O | GH release, ELISA | male Sprague-Dawley rat, anaesthetised, serum | subcutaneous, 3 µg/kg, 15 min |  | serum GH level | 200 ± 10.7 ng/mL
O=c1c(OCc2ccccc2)c(-c2ccc(Cl)cc2)oc2ccccc12 |  | diabetic rat | 5 mg/kg, 28 days, p-nitrophenyl β-glucoside induced |  | serum total cholesterol | 145 ± 4.79 mg/dL
Cc1cc(O)c(C=O)c2c1C(=O)Oc1c(CO)c(O)c3c(c1O2)C(O)OC3=O (stereo not shown) |  | rat, male, streptozotocin-induced diabetes | 5 mg/kg, 0 weeks |  | serum insulin | 3.39 ± 0.13 mIU/L

Repeated from above:
SMILES | assay | test system | conditions | how to read | quantity | value
CCCC[C@H](NC(=O)[C@@H](NC(=O)[C@H](CC(=O)O)NC(=O)[C@H](CCC(N)=O)NC(=O)[C@H](CC(C)C)NC(=O)[C@H](CC(C)C)NC(=O)[C@H](CCCN)NC(=O)[C@H](CCCNC(=N)N)NC(=O)[C@H](C)NC(=O)[C@H](CO)NC(=O)[C@H](CC(C)C)NC(=O)[C@H](CCC(N)=O)NC(=O)[C@H](CC)NC(=O)[C@H](CC(C)C)NC(=O)[C@@H](NC(=O)[C@H](CCCN)NC(=O)[C@H](CCCNC(=N)N)NC(=O)[C@H](Cc1ccc(O)cc1)NC(=O)[C@H](CO)NC(=O)[C@H](CCC(N)=O)NC(=O)[C@@H](NC(=O)[C@H](Cc1ccccc1)NC(=O)[C@@H](NC(=O)[C@H](C)NC(=O)[C@H](CC(=O)O)NC(=O)[C@H](C)NC(=O)[C@H](Cc1ccc(O)cc1)NC)[C@@H](C)CC)[C@@H](C)O)C(C)C)[C@@H](C)CC)C(=O)N[C@@H](CC(=O)O)C(=O)N[C@@H](CCCNC(=N)N)C(=O)NC | GH release, ELISA | male Sprague-Dawley rat, anaesthetised, serum | subcutaneous, 3 µg/kg, 30 min |  | serum GH level | 282 ± 17.8 ng/mL
